# Published values gathered from unrelated publications.
# A part holds a random share of what one study measured. “And” joins repeats or separate records; there may be more than shown.
# Chain of UniProt P42336 (whole entry, unmodified, looked up): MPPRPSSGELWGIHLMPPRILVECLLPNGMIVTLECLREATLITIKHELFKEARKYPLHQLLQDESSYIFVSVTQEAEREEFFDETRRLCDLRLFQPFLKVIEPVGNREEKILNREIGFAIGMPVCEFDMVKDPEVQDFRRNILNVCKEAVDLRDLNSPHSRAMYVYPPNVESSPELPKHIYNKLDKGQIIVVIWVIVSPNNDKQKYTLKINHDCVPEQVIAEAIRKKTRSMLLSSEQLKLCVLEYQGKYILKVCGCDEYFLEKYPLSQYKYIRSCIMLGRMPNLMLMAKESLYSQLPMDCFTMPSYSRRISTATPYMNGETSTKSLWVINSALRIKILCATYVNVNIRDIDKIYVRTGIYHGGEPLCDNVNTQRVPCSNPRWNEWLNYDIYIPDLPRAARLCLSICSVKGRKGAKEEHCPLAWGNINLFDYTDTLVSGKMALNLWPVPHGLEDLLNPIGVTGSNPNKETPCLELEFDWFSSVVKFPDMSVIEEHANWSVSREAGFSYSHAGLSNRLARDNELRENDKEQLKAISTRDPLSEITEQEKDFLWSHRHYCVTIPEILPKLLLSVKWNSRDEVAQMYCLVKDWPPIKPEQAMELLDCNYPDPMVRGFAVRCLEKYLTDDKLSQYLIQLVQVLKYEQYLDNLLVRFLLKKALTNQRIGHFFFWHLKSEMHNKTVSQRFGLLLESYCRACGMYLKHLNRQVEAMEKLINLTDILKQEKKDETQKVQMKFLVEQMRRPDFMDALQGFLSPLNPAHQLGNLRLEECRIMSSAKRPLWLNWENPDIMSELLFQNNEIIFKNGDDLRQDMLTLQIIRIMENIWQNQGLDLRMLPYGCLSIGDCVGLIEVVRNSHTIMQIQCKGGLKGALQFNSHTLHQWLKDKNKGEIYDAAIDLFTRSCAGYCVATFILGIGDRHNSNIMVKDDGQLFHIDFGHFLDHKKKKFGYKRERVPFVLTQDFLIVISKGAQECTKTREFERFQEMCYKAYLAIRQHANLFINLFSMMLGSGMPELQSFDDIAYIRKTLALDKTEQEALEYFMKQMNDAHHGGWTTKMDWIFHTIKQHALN
# Chain of UniProt Q9H2K8 (whole entry, looked up): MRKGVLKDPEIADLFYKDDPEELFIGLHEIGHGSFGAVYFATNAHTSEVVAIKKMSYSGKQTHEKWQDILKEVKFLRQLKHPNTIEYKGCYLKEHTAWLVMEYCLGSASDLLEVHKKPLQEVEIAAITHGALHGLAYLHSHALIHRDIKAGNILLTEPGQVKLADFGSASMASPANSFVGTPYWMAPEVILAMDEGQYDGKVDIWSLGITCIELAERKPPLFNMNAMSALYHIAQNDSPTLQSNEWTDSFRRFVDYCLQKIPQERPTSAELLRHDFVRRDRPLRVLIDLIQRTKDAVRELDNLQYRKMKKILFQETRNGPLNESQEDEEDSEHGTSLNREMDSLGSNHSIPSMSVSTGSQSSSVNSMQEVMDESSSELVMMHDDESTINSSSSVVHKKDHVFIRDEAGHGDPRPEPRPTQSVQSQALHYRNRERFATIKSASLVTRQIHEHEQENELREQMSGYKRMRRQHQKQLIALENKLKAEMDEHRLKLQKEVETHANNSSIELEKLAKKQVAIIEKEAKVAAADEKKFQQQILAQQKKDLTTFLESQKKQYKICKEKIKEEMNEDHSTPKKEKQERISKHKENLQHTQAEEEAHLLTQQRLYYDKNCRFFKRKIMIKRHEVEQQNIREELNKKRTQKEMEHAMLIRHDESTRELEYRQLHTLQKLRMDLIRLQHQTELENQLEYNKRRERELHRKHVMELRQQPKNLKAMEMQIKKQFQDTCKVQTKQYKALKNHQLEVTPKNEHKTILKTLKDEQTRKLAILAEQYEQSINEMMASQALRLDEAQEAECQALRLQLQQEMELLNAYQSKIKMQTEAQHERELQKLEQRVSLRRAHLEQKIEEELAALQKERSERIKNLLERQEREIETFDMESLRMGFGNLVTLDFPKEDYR
# Chain of UniProt P50613 (whole entry, looked up): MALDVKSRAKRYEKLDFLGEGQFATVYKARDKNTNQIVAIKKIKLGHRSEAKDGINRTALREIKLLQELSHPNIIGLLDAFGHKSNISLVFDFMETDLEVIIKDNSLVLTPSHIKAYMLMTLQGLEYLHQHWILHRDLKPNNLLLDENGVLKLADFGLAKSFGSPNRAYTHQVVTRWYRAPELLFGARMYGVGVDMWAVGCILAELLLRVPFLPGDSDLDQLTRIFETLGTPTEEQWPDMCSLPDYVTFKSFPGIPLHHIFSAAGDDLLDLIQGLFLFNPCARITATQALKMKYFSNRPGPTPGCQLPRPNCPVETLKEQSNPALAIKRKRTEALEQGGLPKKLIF
# Chain of UniProt Q16288 (whole entry, looked up): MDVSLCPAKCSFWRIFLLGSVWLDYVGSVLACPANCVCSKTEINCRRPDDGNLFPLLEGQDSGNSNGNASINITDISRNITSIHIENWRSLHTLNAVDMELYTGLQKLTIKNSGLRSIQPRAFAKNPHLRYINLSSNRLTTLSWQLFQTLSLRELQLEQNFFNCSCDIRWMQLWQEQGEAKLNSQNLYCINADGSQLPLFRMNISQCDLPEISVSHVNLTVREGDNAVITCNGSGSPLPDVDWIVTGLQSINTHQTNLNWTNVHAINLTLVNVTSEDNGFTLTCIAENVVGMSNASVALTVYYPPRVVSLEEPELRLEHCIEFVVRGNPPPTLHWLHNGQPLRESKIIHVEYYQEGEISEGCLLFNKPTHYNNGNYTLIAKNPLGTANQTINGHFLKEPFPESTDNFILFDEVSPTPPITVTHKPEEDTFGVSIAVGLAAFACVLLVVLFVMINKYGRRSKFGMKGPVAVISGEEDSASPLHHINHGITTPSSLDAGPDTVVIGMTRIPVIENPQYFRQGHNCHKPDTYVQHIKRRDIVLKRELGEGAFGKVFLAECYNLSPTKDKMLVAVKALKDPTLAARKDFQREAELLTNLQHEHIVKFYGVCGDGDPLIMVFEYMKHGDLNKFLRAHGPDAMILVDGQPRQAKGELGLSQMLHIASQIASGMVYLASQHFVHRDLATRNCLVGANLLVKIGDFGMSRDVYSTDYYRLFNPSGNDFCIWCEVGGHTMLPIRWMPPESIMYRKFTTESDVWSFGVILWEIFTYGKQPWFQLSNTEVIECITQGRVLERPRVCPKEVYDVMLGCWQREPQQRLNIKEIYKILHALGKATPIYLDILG
# Chain of UniProt P54764 (whole entry, looked up): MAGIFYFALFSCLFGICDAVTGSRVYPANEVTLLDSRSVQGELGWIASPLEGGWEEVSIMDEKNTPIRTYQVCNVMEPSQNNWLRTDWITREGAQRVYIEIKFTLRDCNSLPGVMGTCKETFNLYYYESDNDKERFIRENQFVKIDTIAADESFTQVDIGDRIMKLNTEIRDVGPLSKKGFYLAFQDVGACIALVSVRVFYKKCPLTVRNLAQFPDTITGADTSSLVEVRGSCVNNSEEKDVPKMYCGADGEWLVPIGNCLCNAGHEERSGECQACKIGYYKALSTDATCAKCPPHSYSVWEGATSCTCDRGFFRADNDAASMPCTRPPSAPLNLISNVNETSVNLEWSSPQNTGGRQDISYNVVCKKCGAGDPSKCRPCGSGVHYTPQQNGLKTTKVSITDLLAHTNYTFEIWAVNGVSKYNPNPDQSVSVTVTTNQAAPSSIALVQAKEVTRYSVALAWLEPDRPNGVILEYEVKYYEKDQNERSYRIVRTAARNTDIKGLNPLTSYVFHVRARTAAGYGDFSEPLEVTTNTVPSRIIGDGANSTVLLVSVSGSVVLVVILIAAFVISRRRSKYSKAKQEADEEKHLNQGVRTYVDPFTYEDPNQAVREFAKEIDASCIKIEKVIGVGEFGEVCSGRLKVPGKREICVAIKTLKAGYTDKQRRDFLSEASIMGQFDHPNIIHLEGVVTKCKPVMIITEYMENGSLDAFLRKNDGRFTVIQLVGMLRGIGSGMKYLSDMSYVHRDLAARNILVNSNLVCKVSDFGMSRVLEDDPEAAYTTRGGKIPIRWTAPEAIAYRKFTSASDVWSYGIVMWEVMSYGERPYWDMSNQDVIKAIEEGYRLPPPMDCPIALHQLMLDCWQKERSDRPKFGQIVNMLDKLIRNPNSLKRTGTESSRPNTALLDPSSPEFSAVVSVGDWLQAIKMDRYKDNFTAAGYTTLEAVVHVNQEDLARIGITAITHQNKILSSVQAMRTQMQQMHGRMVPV
# Chain of UniProt Q9Y2H1 (whole entry, looked up): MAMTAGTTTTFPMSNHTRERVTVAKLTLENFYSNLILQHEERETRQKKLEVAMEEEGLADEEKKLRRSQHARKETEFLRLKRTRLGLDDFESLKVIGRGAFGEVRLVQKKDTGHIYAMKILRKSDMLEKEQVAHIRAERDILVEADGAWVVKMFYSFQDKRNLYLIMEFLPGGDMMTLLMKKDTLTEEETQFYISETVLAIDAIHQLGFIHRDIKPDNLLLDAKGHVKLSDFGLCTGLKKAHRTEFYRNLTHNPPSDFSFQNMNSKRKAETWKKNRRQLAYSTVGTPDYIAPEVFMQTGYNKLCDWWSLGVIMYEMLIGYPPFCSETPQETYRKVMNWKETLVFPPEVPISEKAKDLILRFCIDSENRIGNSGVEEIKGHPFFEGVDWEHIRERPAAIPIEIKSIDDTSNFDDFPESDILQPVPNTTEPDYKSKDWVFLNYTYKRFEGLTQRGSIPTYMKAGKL

# Set 1
# Compound: C[C@H]1CC[C@H](n2c3cnccc3c3cnc(Nc4ccc5c(n4)CCN(C(=O)CO)C5)nc32)CC1
# Concentration: 1 µM
target,test,remaining binding
"STK38L (Homo sapiens, UniProt Q9Y2H1)",binding,79%
"MET (Homo sapiens, UniProt P08581)",binding,77%
"CDK7 (Homo sapiens, UniProt P50613)","binding, competition with immobilised ligand",57%
"ERBB4 (Homo sapiens, UniProt Q15303)","binding, competition with immobilised ligand",84%
"NTRK3 (Homo sapiens, UniProt Q16288)","cell-free assay, competition with immobilised ligand",12%
"EPHA4 (Homo sapiens, UniProt P54764)","cell-free assay, competition with immobilised ligand",100%
"TNNI3K (Homo sapiens, UniProt Q59H18)","cell-free assay, competition with immobilised ligand",100%

# Set 2
# Target: 5-hydroxytryptamine receptor 1A (HTR1A, Homo sapiens, UniProt P08908)
# Chain of UniProt P08908 (whole entry, looked up): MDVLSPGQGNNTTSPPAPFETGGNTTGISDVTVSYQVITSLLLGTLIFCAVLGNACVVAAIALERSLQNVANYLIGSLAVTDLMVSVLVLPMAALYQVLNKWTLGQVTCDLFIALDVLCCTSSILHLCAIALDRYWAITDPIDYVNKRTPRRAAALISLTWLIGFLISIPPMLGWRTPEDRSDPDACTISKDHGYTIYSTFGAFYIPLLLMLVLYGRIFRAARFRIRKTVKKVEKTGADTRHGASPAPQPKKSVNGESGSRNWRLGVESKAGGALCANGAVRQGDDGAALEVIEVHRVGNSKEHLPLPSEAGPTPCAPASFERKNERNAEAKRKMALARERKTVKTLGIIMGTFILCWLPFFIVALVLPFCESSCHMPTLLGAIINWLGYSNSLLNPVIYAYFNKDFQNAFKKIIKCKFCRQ
# Observed: ligand displacement
# Technique: radioligand
# Concentration: 10 µM
SMILES,inhibition [%]
C[C@@H]1CN(c2cc(-c3n[nH]c4ccc(OC5(C)CC5)cc34)ncn2)C[C@H](C)O1,4.44
CC(C)(O)c1cncc(-c2nc3ccc(F)cc3n2C2CC2)c1,1.22
CS(=O)(=O)NCC[C@H](NC(=O)c1cncc2c1cnn2-c1ccc(F)cc1)c1ccnc(S(C)(=O)=O)c1,13.3
C[C@@H](NC(=O)Nc1cc2[nH]ncc2c(CO)n1)c1ccccc1,-1.87
Cn1nc(C(F)(F)F)cc1-c1cnc(N2CCc3cc(S(=O)(=O)Nc4c(F)cc(Cl)cc4F)cc(N4CCCC4=O)c32)nc1,-11.5
CS(=O)(=O)c1cc(C2(NC(=O)c3cncc4c3cnn4-c3ccc(F)cc3)CC2)ccn1,-9.71
CNC(=O)c1ccc(Nc2ncc(C(F)(F)F)c(NCc3nccnc3N(C)S(C)(=O)=O)n2)cc1,-9.76
COc1cccc(NC(=O)c2nc3scc(CN(C)Cc4ccccc4)c3c(=O)[nH]2)c1,15.8
Cc1cc(Nc2nccc(C)n2)cc(-c2cnc([C@@]3(O)CC[C@H](C(=O)O)C(C)(C)C3)s2)c1,-0.0778
Cc1nc(C2CCN(C(=O)c3ccc(OC(F)(F)F)cc3N)CC2)c2ncc(N3CCN(C)CC3)cc2n1,-3.88
CN(c1ccnc(CNc2nc(Nc3ccc4c(c3)CC(=O)N4)ncc2C(F)(F)F)n1)S(C)(=O)=O,-13.1
CO[C@H]1CC[C@H](CNc2ccc(S(=O)(=O)NC(=O)c3ccc(N4CCN(CC5=C(c6ccc(Cl)cc6)CC(C)(C)CC5)CC4)cc3Oc3cnc4[nH]ccc4c3)cc2[N+](=O)[O-])CC1,-7.27
Cc1c(NC(=O)c2cc(C(N)=O)nc3cc(F)ccc23)c(C(F)(F)F)nn1Cc1ccc(C#N)cc1,-3.47
CSc1cccnc1N1CCN(Cc2nc3ccccc3[nH]2)CC1,81.6
COCCOc1nc(-c2ccc(Cl)nc2)nc2c1CN(C(=O)c1ncn3ccccc13)CC2,-0.41
C[C@@H](c1cccc(C#N)c1)n1cc(Cl)cc(C(N)=O)c1=N,1.02
CCOc1cc(N2C3COCC2CN(C(=O)[C@H]2C[C@H](O)CN2c2ccc(Cl)cc2)C3)ccc1Cl,-9.03
Cn1cncc1[C@](O)(COc1ccc(C#N)cc1-c1ccc(OC(F)(F)F)cc1)c1ccc(C#N)cc1,10.8

# Set 3
# SMILES: C=CC(=O)N1CCC([C@@H]2CCNc3c(C(N)=O)c(-c4ccc(Oc5ccccc5)cc4)nn32)CC1
# Concentration: 1 µM
target,test,inhibition
"PIK3CA (Homo sapiens, UniProt P42336, H1047L)","enzyme activity, inhibitor",11%
"MAP2K3 (Homo sapiens, UniProt P46734)","enzyme activity, inhibitor",23%
"PIK3CA (Homo sapiens, UniProt P42336, Q546K)","enzyme activity, inhibitor",36%
"TSSK1B (Homo sapiens, UniProt Q9BXA7)","enzyme activity, inhibitor",1%
"PAK4 (Homo sapiens, UniProt O96013)","enzyme activity, inhibitor",13%
"MAP2K4 (Homo sapiens, UniProt P45985)","enzyme activity, inhibitor",36%
"TAOK3 (Homo sapiens, UniProt Q9H2K8)","enzyme activity, inhibitor",19%
"MET (Homo sapiens, UniProt P08581, M1250T)",cell-free assay,11%
"ALK (Homo sapiens, UniProt Q9UM73, C1156Y)",cell-free assay,5%

# Further values, each from its own experiment
# Observed: binding
# Action: competitor
# Technique: NanoBRET
# Cell line: HEK293
Compound,target,conditions,normalized BRET
CC(=O)N1CCN(c2nc(OC[C@@H]3CCCN3C)nc3c2CCN(c2cccc4cccc(Cl)c24)C3)C[C@@H]1CC#N,"GTPase KRas (KRAS, Homo sapiens, UniProt P01116, G13D)",15.2 nM,98.3% and 105% and 95.6%
CCC(=O)N1CCN(c2nc(OC[C@@H]3CCCN3C)nc3c2CCN(c2cccc4cccc(Cl)c24)C3)C[C@@H]1CC#N,"GTPase KRas (KRAS, Homo sapiens, UniProt P01116, Q61L)",1.24 µM,63% and 58.9% and 60.1%
C=C(F)C(=O)N1CCN(c2nc(OC[C@@H]3CCCN3C)nc3c2CCN(c2cccc4cccc(Cl)c24)C3)C[C@@H]1CC#N,"GTPase HRas (HRAS, Homo sapiens, UniProt P01112)",156 nM,90.9%
